Published values of several laboratories.
A part holds a random share of what one study measured.
Chain of UniProt O00141 (whole entry, looked up): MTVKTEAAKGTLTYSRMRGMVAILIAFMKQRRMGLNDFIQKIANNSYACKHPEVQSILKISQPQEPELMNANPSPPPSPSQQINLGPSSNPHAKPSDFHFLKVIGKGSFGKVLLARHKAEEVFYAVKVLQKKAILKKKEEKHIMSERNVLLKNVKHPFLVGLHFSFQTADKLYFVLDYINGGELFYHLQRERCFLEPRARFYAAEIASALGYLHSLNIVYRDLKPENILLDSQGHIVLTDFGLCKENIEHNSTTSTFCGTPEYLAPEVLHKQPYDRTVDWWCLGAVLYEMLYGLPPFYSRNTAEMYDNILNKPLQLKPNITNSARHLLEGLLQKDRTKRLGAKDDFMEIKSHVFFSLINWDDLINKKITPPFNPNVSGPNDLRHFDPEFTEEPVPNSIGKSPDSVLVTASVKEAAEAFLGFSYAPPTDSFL
Chain of UniProt Q13177 (whole entry, looked up): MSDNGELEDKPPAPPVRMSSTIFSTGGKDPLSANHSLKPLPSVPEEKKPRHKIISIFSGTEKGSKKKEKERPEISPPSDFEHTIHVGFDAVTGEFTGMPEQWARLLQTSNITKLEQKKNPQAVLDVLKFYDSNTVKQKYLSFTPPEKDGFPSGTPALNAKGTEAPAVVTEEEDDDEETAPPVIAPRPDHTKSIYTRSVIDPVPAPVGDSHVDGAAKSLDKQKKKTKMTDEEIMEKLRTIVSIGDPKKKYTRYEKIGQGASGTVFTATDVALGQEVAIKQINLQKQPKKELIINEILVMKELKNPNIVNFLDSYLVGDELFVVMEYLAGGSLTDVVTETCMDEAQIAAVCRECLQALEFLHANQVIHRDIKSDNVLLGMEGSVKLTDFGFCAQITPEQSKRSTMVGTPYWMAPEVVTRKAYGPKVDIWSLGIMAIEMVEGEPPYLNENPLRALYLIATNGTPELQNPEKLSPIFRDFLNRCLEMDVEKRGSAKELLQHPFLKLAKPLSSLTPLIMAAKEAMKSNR
Chain of UniProt P07332 (whole entry, looked up): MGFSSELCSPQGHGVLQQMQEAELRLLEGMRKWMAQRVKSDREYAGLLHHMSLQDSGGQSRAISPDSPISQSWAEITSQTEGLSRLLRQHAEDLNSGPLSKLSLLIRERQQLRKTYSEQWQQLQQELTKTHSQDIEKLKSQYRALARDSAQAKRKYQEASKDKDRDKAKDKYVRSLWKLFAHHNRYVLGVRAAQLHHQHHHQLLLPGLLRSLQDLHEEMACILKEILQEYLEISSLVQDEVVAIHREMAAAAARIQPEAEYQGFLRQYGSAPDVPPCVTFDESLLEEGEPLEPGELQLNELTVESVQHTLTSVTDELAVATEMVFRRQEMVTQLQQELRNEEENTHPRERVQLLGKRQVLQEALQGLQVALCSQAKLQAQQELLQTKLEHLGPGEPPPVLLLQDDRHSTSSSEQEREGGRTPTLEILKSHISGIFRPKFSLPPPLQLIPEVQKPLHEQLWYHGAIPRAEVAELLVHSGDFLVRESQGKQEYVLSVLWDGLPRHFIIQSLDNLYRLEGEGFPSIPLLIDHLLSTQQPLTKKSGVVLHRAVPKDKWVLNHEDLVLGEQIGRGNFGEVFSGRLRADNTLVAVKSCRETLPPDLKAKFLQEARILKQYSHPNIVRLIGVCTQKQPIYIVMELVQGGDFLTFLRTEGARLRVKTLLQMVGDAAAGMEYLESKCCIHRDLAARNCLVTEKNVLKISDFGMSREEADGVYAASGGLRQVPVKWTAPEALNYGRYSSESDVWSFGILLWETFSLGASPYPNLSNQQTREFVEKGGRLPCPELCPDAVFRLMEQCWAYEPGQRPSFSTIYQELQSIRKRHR
Chain of UniProt P51813 (whole entry, looked up): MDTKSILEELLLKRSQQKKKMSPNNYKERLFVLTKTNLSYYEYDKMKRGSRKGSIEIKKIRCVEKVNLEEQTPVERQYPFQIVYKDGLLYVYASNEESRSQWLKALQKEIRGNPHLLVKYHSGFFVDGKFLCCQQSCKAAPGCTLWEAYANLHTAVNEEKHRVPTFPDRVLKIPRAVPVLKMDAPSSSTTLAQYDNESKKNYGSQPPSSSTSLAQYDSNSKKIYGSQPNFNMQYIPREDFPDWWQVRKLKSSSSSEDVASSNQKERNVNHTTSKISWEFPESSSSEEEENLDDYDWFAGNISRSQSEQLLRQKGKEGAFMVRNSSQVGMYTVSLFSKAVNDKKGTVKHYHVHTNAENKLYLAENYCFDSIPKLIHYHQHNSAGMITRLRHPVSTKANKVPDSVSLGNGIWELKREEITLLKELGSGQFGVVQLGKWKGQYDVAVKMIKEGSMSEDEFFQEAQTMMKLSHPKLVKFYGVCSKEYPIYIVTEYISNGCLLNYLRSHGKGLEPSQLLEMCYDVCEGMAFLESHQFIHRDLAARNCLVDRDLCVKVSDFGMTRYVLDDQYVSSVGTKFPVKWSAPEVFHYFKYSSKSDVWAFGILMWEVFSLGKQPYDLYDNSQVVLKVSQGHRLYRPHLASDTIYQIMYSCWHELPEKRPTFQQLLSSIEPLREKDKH

Series 1
Structure (SMILES): O=c1c(-c2ccc(F)cc2)c(-c2ccncc2)[nH]n1-c1ccc(Cl)cc1
Read-out: enzyme activity
Mode: inhibitor
Tested at: 0.5 µM
Reference: control
| target | remaining activity [%] |
| --- | --- |
| NUAK1 (Homo sapiens, UniProt O60285) | 89.1 |
| PIM2 (Homo sapiens, UniProt Q9P1W9) | 114 |
| PRKCE (Homo sapiens, UniProt Q02156) | 96.7 |
| EPHA7 (Homo sapiens, UniProt Q15375) | 98.5 |
| MYLK (Homo sapiens, UniProt Q15746) | 101 |
| GRK2 (Homo sapiens, UniProt P25098) | 106 |
| FLT3 (Homo sapiens, UniProt P36888) | 92.8 |
| RPS6KB1 (Homo sapiens, UniProt P23443) | 89.9 |
| Aurora kinase C (AURKC, Homo sapiens, UniProt Q9UQB9) | 100 |
| EPHB2 (Homo sapiens, UniProt P29323) | 101 |
| CSK (Homo sapiens, UniProt P41240) | 86.1 |
| CSF1R (Homo sapiens, UniProt P07333) | 102 |
| PAK2 (Homo sapiens, UniProt Q13177) | 102 |
| SGK1 (Homo sapiens, UniProt O00141) | 97.3 |
| GRK6 (Homo sapiens, UniProt P43250) | 90.1 |
| GSK3A (Homo sapiens, UniProt P49840) | 93.3 |
| PRKCG (Homo sapiens, UniProt P05129) | 101 |
| RPS6KA1 (Homo sapiens, UniProt Q15418) | 103 |
| SRPK3 (Homo sapiens, UniProt Q9UPE1) | 92.2 |
| FGFR4 (Homo sapiens, UniProt P22455) | 92.4 |
| BMX (Homo sapiens, UniProt P51813) | 95.8 |

Series 2
Host: mouse
Medium: microsomes or S9
Tested at: 2 µM
Time: 0.5 h
| Compound | remaining compound [%] |
| --- | --- |
| Cc1[nH]c2cccc3c2c1CCN1C(=O)OC2(CC(C)(C)NC(C)(C)C2)C31C (stereo not drawn) | 77.4 |
| CCOC(=O)Cc1c(C)nc2cc(-c3ccc(C)cc3)nn2c1O | 28 |
| Oc1c(-c2nc(-c3cccs3)no2)cnc2ccccc12 | 1.07 |
| CC(=O)c1c(O)c(-c2ccc(Cl)cc2)c[nH]c1=O | 48.2 |
| Cc1cc(C)c(-c2csc(Nc3ncnc4[nH]ncc34)n2)cc1C | 5.64 |
| CCc1nccn1-c1cc(C)nc2c(-c3ccc(Cl)cc3)cnn12 | 46.5 |
| CC1(COc2ccccc2)CC(n2ccnc2)C(c2ccc(-c3ccccc3)cc2)=NO1 (stereo not drawn) | 2.58 |
| Cc1nnc(SCc2nc(N)nc(Nc3ccc4ccccc4c3)n2)s1 | 0.0435 |
| Cc1nc2nc(N3C(=O)CCC3=O)nn2c(C)c1Cl | 61.6 |
| CN(c1ccccc1)c1ncnc2c([C@H]3O[C@@H](COCc4ccccc4)[C@H](OCc4ccccc4)[C@@H]3OCc3ccccc3)cnn12 | 0.438 |
| O=C(CCc1nnc[nH]1)Nc1cc(C2CCCCCC2)[nH]n1 | 55.3 |
| CN(C(=O)CN(c1ccc(Cl)c(Cl)c1)S(=O)(=O)c1ccccc1)C(CN1CCCC1)c1ccc(-c2cccnc2)cc1 (stereo not drawn) | 3.63 |
| c1ccc(Cn2nnc(C3(c4ccccc4)CCOCC3)n2)cc1 | 1.56 |
| COc1cc(Cl)c(C)cc1NC(=O)Cn1ncc2c(N3CCN(c4ccccn4)CC3)ncnc21 | 21.2 |
| COc1ccc(C2C(C(=O)N3CCN(c4ccccc4)CC3)CCC(=O)N2c2ccc3c(c2)OCO3)cc1 (stereo not drawn) | 12.8 |
| O=c1c2ccccc2[se]n1-c1ccc(S(=O)(=O)Nc2ccccn2)cc1 | 31.2 |
| CC1CCC(C)N1C(=O)c1cc(Br)nn1-c1ncccc1Cl (stereo not drawn) | 3.41 |

Series 3
Structure (SMILES): CC(=O)N1CCC(c2ccc(C(=O)NC3=NCCN3)cc2C(F)(F)F)CC1
Method: competition with immobilised ligand
Tested at: 1 µM
| target | read-out | remaining binding [%] |
| --- | --- | --- |
| ANKK1 (Homo sapiens, UniProt Q8NFD2) | cell-free assay | 100 |
| CDC42BPA (Homo sapiens, UniProt Q5VT25) | cell-free assay | 100 |
| MAPK4 (Homo sapiens, UniProt P31152) | cell-free assay | 87 |
| ALK (Homo sapiens, UniProt Q9UM73) | cell-free assay | 89 |
| FES (Homo sapiens, UniProt P07332) | cell-free assay | 100 |
| CDK5 (Homo sapiens, UniProt Q00535) | cell-free assay | 100 |
| FLT3 (Homo sapiens, UniProt P36888, R834Q) | cell-free assay | 100 |
| LRRK2 (Homo sapiens, UniProt Q5S007, G2019S) | cell-free assay | 100 |
| IGF1R (Homo sapiens, UniProt P08069) | cell-free assay | 100 |
| CDK4 (Homo sapiens, UniProt P11802) | cell-free assay | 98 |
| MAP4K3 (Homo sapiens, UniProt Q8IVH8) | cell-free assay | 95 |
| BMPR1A (Homo sapiens, UniProt P36894) | binding | 100 |
| STK38L (Homo sapiens, UniProt Q9Y2H1) | binding | 90 |
| BRAF (Homo sapiens, UniProt P15056) | cell-free assay | 100 |
| LIM domain kinase 1 (LIMK1, Homo sapiens, UniProt P53667) | cell-free assay | 100 |
| CSNK1G2 (Homo sapiens, UniProt P78368) | cell-free assay | 100 |
| DAPK2 (Homo sapiens, UniProt Q9UIK4) | cell-free assay | 100 |

Series 4
Target: DNA polymerase theta, ATPase domain (POLQ, Homo sapiens, UniProt O75417)
Chain of UniProt O75417 (whole entry, unmodified, looked up): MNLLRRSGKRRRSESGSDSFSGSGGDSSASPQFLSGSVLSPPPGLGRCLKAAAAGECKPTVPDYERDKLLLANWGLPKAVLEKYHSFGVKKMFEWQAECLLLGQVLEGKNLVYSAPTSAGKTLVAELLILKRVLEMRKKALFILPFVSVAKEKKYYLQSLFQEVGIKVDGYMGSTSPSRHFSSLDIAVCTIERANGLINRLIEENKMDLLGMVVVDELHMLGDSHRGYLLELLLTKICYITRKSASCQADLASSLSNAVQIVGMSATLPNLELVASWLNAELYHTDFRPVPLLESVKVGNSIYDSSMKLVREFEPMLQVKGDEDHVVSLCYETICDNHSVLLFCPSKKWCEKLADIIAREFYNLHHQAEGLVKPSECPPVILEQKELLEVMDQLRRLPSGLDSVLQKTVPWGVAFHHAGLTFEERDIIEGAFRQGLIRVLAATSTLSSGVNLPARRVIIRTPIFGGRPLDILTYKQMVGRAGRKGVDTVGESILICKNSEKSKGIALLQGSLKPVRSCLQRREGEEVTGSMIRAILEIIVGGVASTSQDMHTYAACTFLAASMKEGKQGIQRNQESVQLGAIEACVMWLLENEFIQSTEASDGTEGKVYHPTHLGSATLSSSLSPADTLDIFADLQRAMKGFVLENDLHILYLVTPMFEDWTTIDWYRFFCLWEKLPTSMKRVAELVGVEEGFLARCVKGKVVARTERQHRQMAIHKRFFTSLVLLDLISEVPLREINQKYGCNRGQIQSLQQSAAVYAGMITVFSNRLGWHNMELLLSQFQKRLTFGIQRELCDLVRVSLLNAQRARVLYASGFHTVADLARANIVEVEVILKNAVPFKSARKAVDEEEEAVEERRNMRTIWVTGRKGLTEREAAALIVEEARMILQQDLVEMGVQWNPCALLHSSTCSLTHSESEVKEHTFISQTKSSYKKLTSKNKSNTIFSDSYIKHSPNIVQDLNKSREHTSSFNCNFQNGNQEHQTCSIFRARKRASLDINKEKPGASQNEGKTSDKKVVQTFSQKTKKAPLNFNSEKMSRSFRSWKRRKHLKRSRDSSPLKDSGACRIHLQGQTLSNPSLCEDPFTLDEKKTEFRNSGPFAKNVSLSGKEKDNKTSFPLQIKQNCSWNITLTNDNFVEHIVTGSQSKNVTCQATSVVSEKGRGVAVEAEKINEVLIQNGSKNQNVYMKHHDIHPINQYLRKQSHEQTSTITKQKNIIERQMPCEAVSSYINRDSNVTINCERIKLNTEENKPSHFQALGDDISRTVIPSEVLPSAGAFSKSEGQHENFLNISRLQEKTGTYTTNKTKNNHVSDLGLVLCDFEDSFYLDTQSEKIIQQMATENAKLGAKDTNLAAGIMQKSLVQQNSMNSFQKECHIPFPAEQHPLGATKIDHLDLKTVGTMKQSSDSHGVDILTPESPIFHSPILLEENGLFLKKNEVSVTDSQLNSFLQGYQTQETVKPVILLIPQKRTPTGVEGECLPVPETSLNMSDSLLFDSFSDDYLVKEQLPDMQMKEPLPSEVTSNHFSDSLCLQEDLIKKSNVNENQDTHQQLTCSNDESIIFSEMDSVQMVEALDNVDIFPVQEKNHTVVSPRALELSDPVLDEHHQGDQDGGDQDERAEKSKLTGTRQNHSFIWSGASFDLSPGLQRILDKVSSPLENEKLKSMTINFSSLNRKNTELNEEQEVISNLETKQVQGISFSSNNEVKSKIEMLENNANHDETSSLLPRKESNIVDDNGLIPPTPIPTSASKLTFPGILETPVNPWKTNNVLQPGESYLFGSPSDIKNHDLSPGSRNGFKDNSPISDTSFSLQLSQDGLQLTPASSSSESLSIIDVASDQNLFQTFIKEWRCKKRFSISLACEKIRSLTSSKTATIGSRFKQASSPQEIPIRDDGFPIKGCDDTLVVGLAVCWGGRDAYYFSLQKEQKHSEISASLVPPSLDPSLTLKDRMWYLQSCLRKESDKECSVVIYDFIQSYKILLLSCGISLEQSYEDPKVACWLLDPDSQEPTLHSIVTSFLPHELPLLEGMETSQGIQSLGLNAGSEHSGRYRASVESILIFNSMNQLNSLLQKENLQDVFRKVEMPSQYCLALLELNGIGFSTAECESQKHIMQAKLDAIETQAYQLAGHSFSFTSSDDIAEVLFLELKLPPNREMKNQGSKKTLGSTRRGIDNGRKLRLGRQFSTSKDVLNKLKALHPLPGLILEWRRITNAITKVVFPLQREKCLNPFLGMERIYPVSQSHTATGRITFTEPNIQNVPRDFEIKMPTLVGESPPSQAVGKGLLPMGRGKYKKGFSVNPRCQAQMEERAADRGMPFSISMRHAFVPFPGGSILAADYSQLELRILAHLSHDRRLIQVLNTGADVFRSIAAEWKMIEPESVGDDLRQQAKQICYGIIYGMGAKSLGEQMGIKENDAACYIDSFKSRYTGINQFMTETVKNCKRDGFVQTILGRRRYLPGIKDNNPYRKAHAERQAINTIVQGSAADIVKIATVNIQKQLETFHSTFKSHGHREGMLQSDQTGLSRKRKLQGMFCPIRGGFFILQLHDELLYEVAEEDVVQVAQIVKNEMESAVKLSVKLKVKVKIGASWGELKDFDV
Read-out: enzyme activity
Mode: inhibitor
Tested at: 77 µM
| SMILES | remaining activity [%] |
| --- | --- |
| CC(C)COC(=O)OCN1C(=O)CN(CCN2CC(=O)N(COC(=O)OCC(C)C)C(=O)C2)CC1=O | 99.3 |
| CC(C)n1c(/C=C/[C@@H](O)C[C@@H](O)CC(=O)O)c(-c2ccc(F)cc2)c2ccccc21 | 98.7 |
| CN(C)CCC=C1c2ccccc2COc2ccccc21 | 115 |
| CSC(=N)N | 101 |
| O=NN(CCCl)C(=O)NCCCl | 101 |
| CCCSc1ccc2[nH]c(NC(=O)OC)nc2c1 | 102 |
| Cc1c(-c2ccc(O)cc2)n(Cc2ccc(OCCN3CCCCCC3)cc2)c2ccc(O)cc12 | 96.2 |
| CC(C)NCC(O)COc1ccc(CC(N)=O)cc1 (stereo not drawn) | 87.1 |
| CN1CCN2c3ccccc3Cc3ccccc3C2C1 (stereo not drawn) | 101 |
| COc1c2occc2cc2ccc(=O)oc12 | 94.8 |
| CCCC(=O)Nc1ccc(OCC(O)CNC(C)C)c(C(C)=O)c1 (stereo not drawn) | 102 |

For quick reference, copied from above (series 1):
| target | remaining activity [%] |
| --- | --- |
| PRKCE (Homo sapiens, UniProt Q02156) | 96.7 |
| EPHA7 (Homo sapiens, UniProt Q15375) | 98.5 |
| MYLK (Homo sapiens, UniProt Q15746) | 101 |
| GRK2 (Homo sapiens, UniProt P25098) | 106 |
| FLT3 (Homo sapiens, UniProt P36888) | 92.8 |
